Measurements pooled from the literature.
Every numbered part comes from another study and shows a few of its results, in no order. Values joined by “and” are separate records of one study, mostly repeats; a detail may differ.
Sequence of UniProt P08908 (whole entry, looked up): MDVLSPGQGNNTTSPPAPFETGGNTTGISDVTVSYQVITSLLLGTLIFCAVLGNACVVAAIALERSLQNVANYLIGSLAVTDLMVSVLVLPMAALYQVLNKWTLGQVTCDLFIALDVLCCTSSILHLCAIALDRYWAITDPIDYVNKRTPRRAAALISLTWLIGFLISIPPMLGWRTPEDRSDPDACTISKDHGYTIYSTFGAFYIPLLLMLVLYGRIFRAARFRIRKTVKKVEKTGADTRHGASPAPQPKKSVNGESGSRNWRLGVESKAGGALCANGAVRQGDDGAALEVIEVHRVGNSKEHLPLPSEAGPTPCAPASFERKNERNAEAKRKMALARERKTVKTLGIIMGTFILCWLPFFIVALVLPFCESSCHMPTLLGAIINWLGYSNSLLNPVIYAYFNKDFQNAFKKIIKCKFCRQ

Series 1
Cell line: HaCaT
Concentration: 100 µM
Time: 18 h
Compound | viability
C[C@@H](O[C@H]1OCCN(Cc2n[nH]c(=O)[nH]2)[C@H]1c1ccc(F)cc1)c1cc(C(F)(F)F)cc(C(F)(F)F)c1 | 16%
CC(C)Oc1ccc2c(=O)c(-c3ccccc3)coc2c1 | 97.9%
CCCc1cc(C(N)=S)ccn1 | 111%
N[C@H](C(=O)O)[C@H](O)c1ccc(O)c(O)c1 | 126%
CCN[C@H]1CN(CCCOC)S(=O)(=O)c2sc(S(N)(=O)=O)cc21 | 96.5%
CCc1nc(N)nc(N)c1-c1ccc(Cl)cc1 | 90.1%
O=C(Nc1c(Cl)cncc1Cl)c1ccc(OC(F)F)c(OCC2CC2)c1 | 94%
NCCNc1ccc(NCCN)c2c1C(=O)c1ccncc1C2=O | 24.6%
Cc1cc(NS(=O)(=O)c2ccc(N)cc2)nc(C)n1 | 108%
CC(C)(C(=O)c1cccnc1)c1cccnc1 | 110%

Series 2
Species: human
Medium: microsomes or S9
Concentration: 2 µM
Time: 0.5 h
SMILES | remaining compound [%]
Cc1cc(-c2cc(=O)n(C)n2C(F)F)c(F)cc1Cl | 62.3
CC(C)[C@@H](NS(=O)(=O)c1ccc(F)cc1)C(=O)O | 98.8
CN1CCC(C(=O)OC2CC(C)(C)Oc3ccc(Br)cc32)CC1=O (stereo not drawn) | 16.2
Cc1nnc2c(Nc3cccc(CNC(=O)OC(C)(C)C)c3)nc3cc(C(=O)Nc4ccccc4)ccc3n12 | > 100
CCCn1nccc1-c1csc(S(=O)(=O)Nc2ccccc2)c1 | 0.0789
Cc1nn(-c2ccccc2)c2nc3c(cc12)C(=O)CC(c1cccs1)C3 (stereo not drawn) | 45.2
CCC(CC)C(=O)N1CCN(S(=O)(=O)c2ccccc2)CC1 | 88
O=C(O)CCN(C(=O)c1cc2c(s1)CCCC2)C1CCOCC1 | > 100
CO[C@H]1C[C@H](C(=O)Nc2ccncc2C(C)=O)N(S(C)(=O)=O)C1 | > 100
COc1ccc(-c2c(-n3cncn3)c([S+](C)[O-])nn2-c2ccc(F)cc2)cc1 (stereo not drawn) | 77.3
CC(C)CC1(C(=O)N2CCC(N(C)CC(=O)O)CC2)CCCC1 | 80.4
CCc1cccc(CC)c1NC(=O)CN(c1cccc(Cl)c1Cl)S(C)(=O)=O | 1.74

Series 3
Compound: CCOc1ccc(Nc2c3c(nc4ccccc24)CCC3)cc1
cell line | method | concentration | time | setting | cytotoxicity
HepG2 | resazurin | 0.32 µM | 48 h |  | 4% and 3%
PMA-differentiated THP-1 macrophages |  | 0.2 µM | 64 h |  | 2% and 1%
HEK293 | resazurin | 0.066 µM |  | 10% serum | 1% and 3%
J774.1 | resazurin | 0.0066 µM | 64 h |  | 0% and 3%
RAW264.7 | resazurin | 3.32 µM |  |  | -5% and -6%
HEK293 | resazurin | 0.0332 µM |  | 10% serum | -1% and -2%
HepG2 | resazurin | 0.00332 µM | 48 h |  | -2% and 1%
J774.1 | resazurin | 6.66 µM | 64 h |  | 40% and 24%
HEK293 | resazurin | 0.0166 µM |  | 10% serum | 3% and -2%

Series 4
Target: G protein-coupled receptor kinase 5 (GRK5, Homo sapiens, UniProt P34947)
Sequence of UniProt P34947 (whole entry, looked up): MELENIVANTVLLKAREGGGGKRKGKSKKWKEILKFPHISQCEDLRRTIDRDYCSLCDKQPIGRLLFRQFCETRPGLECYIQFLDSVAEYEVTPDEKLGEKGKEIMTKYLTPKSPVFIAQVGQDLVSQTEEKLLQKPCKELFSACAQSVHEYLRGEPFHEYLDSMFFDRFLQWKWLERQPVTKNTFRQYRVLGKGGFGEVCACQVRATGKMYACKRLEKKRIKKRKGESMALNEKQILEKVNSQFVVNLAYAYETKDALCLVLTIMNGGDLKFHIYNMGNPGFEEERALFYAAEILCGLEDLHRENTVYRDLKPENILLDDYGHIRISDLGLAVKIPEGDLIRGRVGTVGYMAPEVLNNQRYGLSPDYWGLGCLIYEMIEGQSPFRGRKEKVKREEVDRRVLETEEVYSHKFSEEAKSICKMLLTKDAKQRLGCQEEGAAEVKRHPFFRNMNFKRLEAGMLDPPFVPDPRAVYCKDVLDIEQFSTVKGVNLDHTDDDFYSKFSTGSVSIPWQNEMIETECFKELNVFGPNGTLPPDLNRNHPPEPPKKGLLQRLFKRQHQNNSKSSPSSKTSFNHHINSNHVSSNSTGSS
Effect on: enzyme activity
Action: inhibitor
Concentration: 0.5 µM
Reference: control
Structure (SMILES) | remaining activity
O=C1c2ccccc2-c2n[nH]c3cccc1c23 | 98.8%
O=C1C(Cl)=C(N2C(=O)CCC2=O)C(=O)c2ccccc21 | 91.5%
COc1cc2c(cc1OC)-c1[nH]nc(Nc3cccc(F)c3)c1C2 | 95.8%
CN(C)C[C@H]1CCn2c(c(C3=C(c4cn(C)c5ccccc45)C(=O)NC3=O)c3ccccc32)C1 | 56.2%
CCN(CC)CCNC(=O)c1c(C)[nH]c(/C=C2\C(=O)Nc3ccc(Cl)cc32)c1C | 82.7%
Nc1cccc(-c2cc3c(Oc4cccc(O)c4)ncnc3[nH]2)c1 | 128%
O=C(Nc1cccc(Nc2nccc(Nc3cccc(C(F)(F)F)c3)n2)c1)C1CC1 | 104%
O=C(NC(NC(=S)Nc1ccc(F)c([N+](=O)[O-])c1)C(Cl)(Cl)Cl)C(c1ccccc1)c1ccccc1 (stereo not drawn) | 105%
c1ccc(-c2[nH]ncc2-c2ccnc3ccccc23)nc1 | 109%
N#Cc1c(NC(=O)c2cccc3ccccc23)sc2c1CCCC2 | 98.2%
Cn1nc2c3c(cccc31)C(=O)c1ccccc1-2 | 93.8%
Cc1nc2cc3nc(-c4cccs4)cnc3cc2n1C | 108%
O=c1cc(-c2cccc3c2Sc2ccccc2S3)oc(N2CCOCC2)c1 | 105%
CCOc1nc(NC(=O)Cc2cc(OC)ccc2OC)cc(N)c1C#N | 95.4%
c1ccc(-c2cnc(Nc3ccc(OCCN4CCCC4)cc3)s2)cc1 | 99.4%
Cc1cc2ncc(-c3ccccc3)nc2cc1C | 107%
COc1cc2ncnc(Nc3ccc(O)c(Br)c3)c2cc1OC | 101%
CCN(CC)C(=O)c1ccc(Nc2nc(OCC3CCCCC3)c3[nH]cnc3n2)cc1 | 98.8%
Cc1cn(-c2cc(NC(=O)c3ccc(C)c(Nc4nccc(-c5cccnc5)n4)c3)cc(C(F)(F)F)c2)cn1 | 98.6%
C[C@@H]1CCN(C(=O)CC#N)C[C@@H]1N(C)c1ncnc2[nH]ccc12 | 107%
CN([C@@H](Cc1ccc(OS(=O)(=O)c2cccc3cnccc23)cc1)C(=O)N1CCN(c2ccccc2)CC1)S(=O)(=O)c1cccc2cnccc12 | 95.6%
N#C/C(=C\c1ccc(O)c(O)c1)C(=O)NCc1ccccc1 | 108%
Ic1cccc(CSc2nnc(-c3ccncc3)o2)c1 | 106%
COc1cc2ncnc(Nc3cccc(Cl)c3)c2cc1OC | 105%

Mixed results
Structure (SMILES) | target | test | test system | conditions | scale | quantity | value
CSc1cccnc1N1CCN(Cc2nc3ccccc3[nH]2)CC1 | HTR1A (Homo sapiens, UniProt P08908) | radioligand binding |  |  |  | Ki | 1680 nM
C=C(F)C(=O)N1CCN(c2nc(OC[C@@H]3CCCN3C)nc3c2CCN(c2cccc4cccc(Cl)c24)C3)C[C@@H]1CC#N | GTPase HRas (HRAS, Homo sapiens, UniProt P01112, G12V) | binding, NanoBRET | HEK293 (live) | 0.8239 µM | lower = stronger binding | target engagement | 115% and 118% and 119%

For quick reference, copied from above (series 3):
cell line | method | concentration | time | setting | cytotoxicity
J774.1 | resazurin | 6.66 µM | 64 h |  | 40% and 24%
HepG2 | resazurin | 0.32 µM | 48 h |  | 4% and 3%
J774.1 | resazurin | 0.0066 µM | 64 h |  | 0% and 3%
HEK293 | resazurin | 0.066 µM |  | 10% serum | 1% and 3%
PMA-differentiated THP-1 macrophages |  | 0.2 µM | 64 h |  | 2% and 1%
RAW264.7 | resazurin | 3.32 µM |  |  | -5% and -6%
